{"data": "Measured values of several laboratories", "note": "A part holds a random share of what one study measured. Substitutions count along the parent as printed."}
{"data": "Series 1", "target": "CCNE1, cyclin fold, Cln2 fusion (human)", "method": "yeast growth competition, sequencing", "medium": "yeast", "setting": "strong parent motif", "reference": "not given", "reading": "higher = stronger binding", "starting sequence": "CDC25A docking peptide (human); PPHRRRLLFACSP"}
{"Change": "F9Q", "normalised enrichment score": -0.208}
{"Change": "P2K", "normalised enrichment score": 1.08}
{"Change": "P13Y", "normalised enrichment score": 1.31}
{"Change": "S12L", "normalised enrichment score": 1.68}
{"Change": "P2S", "normalised enrichment score": 1.05}
{"Change": "A10C", "normalised enrichment score": 1.16}
{"data": "Series 2", "target": "Histone acetyltransferase KAT6A, winged helix 1, GST fusion (KAT6A, Homo sapiens, UniProt Q92794, residues 1-85)", "method": "protein binding microarray", "molecule type": "double-stranded DNA, one strand shown", "medium": "in vitro", "tested at": "not given", "setting": "8-mer, flanks averaged, mean of 2 arrays, mostly near background", "reference": "not given", "reading": "higher = stronger binding", "Residues (chain)": "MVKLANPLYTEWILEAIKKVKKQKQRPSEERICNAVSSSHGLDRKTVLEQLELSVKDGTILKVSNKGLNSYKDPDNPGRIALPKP"}
{"Oligonucleotide": "CCTTGTGC", "E-score": -0.104}
{"Oligonucleotide": "ACTAGAAT", "E-score": -0.179}
{"Oligonucleotide": "CTTGTGAC", "E-score": -0.0227}
{"Oligonucleotide": "ATTCCAGA", "E-score": -0.013}
{"Oligonucleotide": "ACAGAGGC", "E-score": -0.0202}
{"Oligonucleotide": "TATTAAAA", "E-score": 0.00466}
{"data": "Series 3", "target": "RNA binding protein fox-1 homolog 2, RRM domain, GST-SBP tag (RBFOX2, Homo sapiens, UniProt O43251-10, residues 100-194)", "method": "RNA Bind-n-Seq", "molecule type": "RNA", "medium": "in vitro", "tested at": "365 nM", "setting": "natural RNA segment, single round, ends assumed", "reference": "no-protein control", "reading": "higher = stronger binding", "shared flanks, not repeated": "GGGAGUUCUACAGUCCGACGAUC … UGGAAUUCUCGGGUGCCAA", "Construct (chain)": "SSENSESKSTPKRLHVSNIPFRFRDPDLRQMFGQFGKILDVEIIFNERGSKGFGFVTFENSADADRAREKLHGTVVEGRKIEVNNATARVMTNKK"}
{"Oligonucleotide": "UUGUGUGCGUGUACGUGUGCCCCUGUGUGUGGGCCCAGUUUUCAGGCAUGUAGAAUAAGCAUGGAGUCAUAUUGAGGAGGACUCACUUCUUGAAGAUAUGCUUGUUGCUU", "RBNS enrichment (R)": 4.64}
{"Oligonucleotide": "AGUGUGGAAGUACUACUUAACUGUCUGUCCUGCUUGGCUGUCGUUAUCGUUUUCUGGUGAUGUUGUGCUAACAAUAAGAAGUACACGGGUUUAUUUCUGUGGCCUGAGAA", "RBNS enrichment (R)": 0.709}
{"Oligonucleotide": "CUUUGUGGGACAGACAAACUUUUUAAAAAUUACUUUGUUGACUGACAAACCAGCUGCCAGCUUCUGGCUGCAAAACUGCCUGGUGAAAUUGACUUGCUUGGUUUCAUUCA", "RBNS enrichment (R)": 0.357}
{"Oligonucleotide": "UUCUUUUGAGCUUAGUCAGCUGUACCUUUUCAAUUAGUUCUUUUUCAACCAAUGUGUCACUAAAAGUUCCAUCAAAGCUUUAUCAGUUCAAGUUUCUUGCUUUUCAUAAU", "RBNS enrichment (R)": 0.824}
{"Oligonucleotide": "GGCAAGUAGCAGCCUGAGGAAGAUGCUGGCUUGUCUGUACCGUCACGUCUGCAGCAGAGGCCCAGUAGCACCGAAUGGUGUCCAAUAAGCUCUGAGCAGUGGCAAUAGAA", "RBNS enrichment (R)": 0.319}
{"Oligonucleotide": "AGAUCAAAAUUUUACACUAGCUUAUUAGAGCCCUAUUAGUUCCUGUCCCAAGUUCUUCAGUUACAACCUAGUAGUAUACUUACUCUUCCAACUGUCCUAAGGUCACUUCC", "RBNS enrichment (R)": 0.598}
{"Oligonucleotide": "UAUGUGAAUAACUUGACUUGCAUUGAUCUUUUUACAUAUUUAAUAAAAAAAAAAGUAUAUGUUAAAAUCUGCCUGGAGUUACAGAUUCUUAAAUUUUUAUGCUGAAGCUU", "RBNS enrichment (R)": 2.68}
{"Oligonucleotide": "AUUUGAAAACUCAGCAGAACAUGAACAGAUGAAAUGCAAUCCUUCUGUCAUGGAAAUAUUCACAAGAAAGCUGGCAUCUGUCCCAAUUCUCUCUCCUGUAAAUCCACGAG", "RBNS enrichment (R)": 0.531}
{"Oligonucleotide": "CAAGCAAUCCAGCCUCAUGGGAAGUCCUGGCACAGUUUUUGUAAAGCCCUUGCACAGCUGGAGAAAUGGCAUCAUUAUAAGCUAUGAGUUGAAAUGUUCUGUCAAAUGUG", "RBNS enrichment (R)": 0.458}
{"data": "Mixed results"}
{"Molecule": "PhoQ, residues 284 288 289 292 302 303 SCCLKL", "target": "PhoP, residues 12 14 15 18 19 SEGLL (Escherichia coli, UniProt P23836)", "assay": "Sort-seq, measured: YFP reporter", "test system": "E. coli", "conditions": "PhoQ-PhoP variant library, with: 10 µM Mg2+", "scale": "reference: high Mg2+ state, higher = stronger signaling", "endpoint": "fold induction", "result": 4.89}
{"note": "Excerpt of the above (series 2):"}
{"Oligonucleotide": "CTTGTGAC", "E-score": -0.0227}
